Measured values gathered from unrelated publications.
A part holds a random share of what one study measured.

Set 1
Target: Histone acetyltransferase KAT6A, winged helix 2, GST fusion (KAT6A, Homo sapiens, UniProt Q92794, residues 85-181)
Technique: protein binding microarray
Form: double-stranded DNA, one strand shown
Medium: in vitro
Tested at: not given
Notes: 8-mer, flanks averaged, mean of 2 arrays, mostly near background
Relative to: not given
Reading: higher = stronger binding
Endpoint: E-score
Construct (chain): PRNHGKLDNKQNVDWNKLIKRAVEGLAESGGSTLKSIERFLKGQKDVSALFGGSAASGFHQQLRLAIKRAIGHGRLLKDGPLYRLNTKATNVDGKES
AGTGACTC: -0.0816
GGATTCAA: 0.0413
CGCTTGAC: 0.0318
ACTTAACC: 0.00713
GTGACATA: 0.0418
ACACCATC: -0.0599

Set 2
Target: Transcriptional repressor CTCF (CTCF, Homo sapiens, UniProt P49711, residues 1-727, full length assumed)
Chain of UniProt P49711 (whole entry, looked up): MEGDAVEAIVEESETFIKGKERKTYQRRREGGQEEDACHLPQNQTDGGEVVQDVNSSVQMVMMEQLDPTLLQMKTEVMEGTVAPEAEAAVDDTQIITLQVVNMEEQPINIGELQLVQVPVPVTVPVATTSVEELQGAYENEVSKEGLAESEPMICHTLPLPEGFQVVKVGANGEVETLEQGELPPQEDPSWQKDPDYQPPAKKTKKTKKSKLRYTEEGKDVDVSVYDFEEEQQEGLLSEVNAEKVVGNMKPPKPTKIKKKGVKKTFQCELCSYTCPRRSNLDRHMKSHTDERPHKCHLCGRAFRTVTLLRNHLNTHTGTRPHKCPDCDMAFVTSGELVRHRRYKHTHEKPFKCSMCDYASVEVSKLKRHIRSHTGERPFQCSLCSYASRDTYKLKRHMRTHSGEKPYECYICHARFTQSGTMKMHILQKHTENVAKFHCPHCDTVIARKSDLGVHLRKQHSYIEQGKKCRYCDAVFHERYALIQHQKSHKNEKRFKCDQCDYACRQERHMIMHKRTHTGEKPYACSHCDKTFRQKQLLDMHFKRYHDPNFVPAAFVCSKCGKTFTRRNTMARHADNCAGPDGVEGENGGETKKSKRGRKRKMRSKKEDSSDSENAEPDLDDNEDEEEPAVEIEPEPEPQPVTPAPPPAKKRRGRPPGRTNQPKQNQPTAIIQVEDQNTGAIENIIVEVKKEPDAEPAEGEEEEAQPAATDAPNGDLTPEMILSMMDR
Technique: protein-binding microarray
Form: double-stranded DNA, one strand shown
Medium: in vitro
Tested at: not given
Notes: k-mer, scored over probes, only values ≥0.25
Reading: higher = stronger binding
Endpoint: E-score
ACATAAAC: 0.288
CATAATAA: 0.269
AAAATGTT: 0.263
CGTAAATA: 0.291
AAATAACG: 0.319
CGCAATTA: 0.308

Set 3
Target: Sal-like protein 4, full length isoform B (SALL4, Homo sapiens, UniProt Q9UJQ4-2, residues 1-616)
Technique: universal PBM
Form: double-stranded DNA, one strand shown
Medium: in vitro
Tested at: not given
Notes: 8-mer, flanks averaged, mean of replicates
Reading: higher = stronger binding
Endpoint: E-score
Target sequence (chain): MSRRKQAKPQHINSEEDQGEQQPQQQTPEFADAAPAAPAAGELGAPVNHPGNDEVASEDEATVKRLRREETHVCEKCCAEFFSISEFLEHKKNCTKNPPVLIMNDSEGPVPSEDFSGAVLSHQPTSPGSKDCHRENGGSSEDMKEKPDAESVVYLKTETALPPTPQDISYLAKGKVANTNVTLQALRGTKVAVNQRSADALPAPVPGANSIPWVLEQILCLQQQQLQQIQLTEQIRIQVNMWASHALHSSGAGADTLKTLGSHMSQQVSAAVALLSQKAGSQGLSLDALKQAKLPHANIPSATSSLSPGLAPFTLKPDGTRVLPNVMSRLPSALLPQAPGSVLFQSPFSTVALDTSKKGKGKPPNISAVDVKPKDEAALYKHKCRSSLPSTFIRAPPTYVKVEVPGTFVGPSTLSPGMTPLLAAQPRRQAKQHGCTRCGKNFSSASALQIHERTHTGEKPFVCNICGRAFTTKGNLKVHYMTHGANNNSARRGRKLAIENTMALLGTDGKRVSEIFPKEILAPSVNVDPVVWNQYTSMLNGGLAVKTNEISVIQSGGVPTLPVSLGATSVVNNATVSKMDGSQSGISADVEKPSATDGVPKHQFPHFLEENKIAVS
GCACCTGC: -0.221
GATACCAC: -0.0186
GTCATGGA: -0.0201
TGCGCGAA: -0.0201
TAGCCTCA: -0.00035
TACTGGCA: 0.12
AAGGTTAC: -0.0233
ATTTTCAC: 0.171

Mixed results
PhoQ, residues 284 288 289 292 302 303 SSYNSA
fold induction (PhoP, residues 12 14 15 18 19 NFCKL (Escherichia coli, UniProt P23836); Sort-seq, item: YFP reporter; E. coli; PhoQ-PhoP variant library, together with: 10 µM Mg2+; relative to: high Mg2+ state, higher = stronger signaling): 1.08

Repeated from above (set 2):
AAATAACG: 0.319
CATAATAA: 0.269
CGTAAATA: 0.291
